{"data": "Assay results gathered from unrelated publications", "note": "Every numbered part comes from another study and shows a few of its results, in no order. Several values in a cell are separate wells, animals, samples, runs or records.", "UniProt P42680, sequence (whole entry, looked up)": "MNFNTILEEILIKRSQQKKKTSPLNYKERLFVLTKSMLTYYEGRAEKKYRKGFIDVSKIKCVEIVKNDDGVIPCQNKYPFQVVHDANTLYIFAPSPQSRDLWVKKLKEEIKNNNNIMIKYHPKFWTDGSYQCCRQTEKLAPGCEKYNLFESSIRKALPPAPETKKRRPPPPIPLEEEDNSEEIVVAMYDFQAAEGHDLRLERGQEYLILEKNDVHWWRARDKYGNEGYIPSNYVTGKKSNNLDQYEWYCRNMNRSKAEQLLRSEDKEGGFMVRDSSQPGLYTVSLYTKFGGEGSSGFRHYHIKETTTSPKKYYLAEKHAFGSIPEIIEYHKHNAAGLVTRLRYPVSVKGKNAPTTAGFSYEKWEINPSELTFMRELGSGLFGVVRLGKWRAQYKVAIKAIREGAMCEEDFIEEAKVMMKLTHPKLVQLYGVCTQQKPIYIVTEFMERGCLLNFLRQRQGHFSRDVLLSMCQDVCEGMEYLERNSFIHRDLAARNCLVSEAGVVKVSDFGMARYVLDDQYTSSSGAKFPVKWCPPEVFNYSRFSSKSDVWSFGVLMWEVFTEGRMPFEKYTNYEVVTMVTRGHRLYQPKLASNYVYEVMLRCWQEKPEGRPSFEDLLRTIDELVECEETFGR", "UniProt P35626, sequence (whole entry, looked up)": "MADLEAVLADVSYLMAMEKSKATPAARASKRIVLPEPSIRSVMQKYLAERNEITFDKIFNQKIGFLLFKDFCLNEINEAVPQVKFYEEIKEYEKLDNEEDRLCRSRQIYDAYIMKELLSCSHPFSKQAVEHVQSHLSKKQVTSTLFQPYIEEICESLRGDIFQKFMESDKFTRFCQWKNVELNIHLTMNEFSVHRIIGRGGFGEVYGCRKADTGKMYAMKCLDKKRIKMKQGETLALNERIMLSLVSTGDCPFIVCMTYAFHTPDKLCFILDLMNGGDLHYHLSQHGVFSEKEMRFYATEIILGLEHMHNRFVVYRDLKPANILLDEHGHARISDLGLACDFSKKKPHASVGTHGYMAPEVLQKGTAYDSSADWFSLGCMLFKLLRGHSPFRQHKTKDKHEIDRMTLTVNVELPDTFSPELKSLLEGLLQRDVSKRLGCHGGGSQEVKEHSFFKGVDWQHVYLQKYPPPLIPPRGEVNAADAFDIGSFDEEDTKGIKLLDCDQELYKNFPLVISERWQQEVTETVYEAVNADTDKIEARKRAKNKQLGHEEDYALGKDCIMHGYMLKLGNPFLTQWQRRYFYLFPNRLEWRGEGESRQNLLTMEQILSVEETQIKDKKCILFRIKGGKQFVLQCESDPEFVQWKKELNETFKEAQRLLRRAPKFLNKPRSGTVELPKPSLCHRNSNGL", "UniProt O15146, sequence (whole entry, looked up)": "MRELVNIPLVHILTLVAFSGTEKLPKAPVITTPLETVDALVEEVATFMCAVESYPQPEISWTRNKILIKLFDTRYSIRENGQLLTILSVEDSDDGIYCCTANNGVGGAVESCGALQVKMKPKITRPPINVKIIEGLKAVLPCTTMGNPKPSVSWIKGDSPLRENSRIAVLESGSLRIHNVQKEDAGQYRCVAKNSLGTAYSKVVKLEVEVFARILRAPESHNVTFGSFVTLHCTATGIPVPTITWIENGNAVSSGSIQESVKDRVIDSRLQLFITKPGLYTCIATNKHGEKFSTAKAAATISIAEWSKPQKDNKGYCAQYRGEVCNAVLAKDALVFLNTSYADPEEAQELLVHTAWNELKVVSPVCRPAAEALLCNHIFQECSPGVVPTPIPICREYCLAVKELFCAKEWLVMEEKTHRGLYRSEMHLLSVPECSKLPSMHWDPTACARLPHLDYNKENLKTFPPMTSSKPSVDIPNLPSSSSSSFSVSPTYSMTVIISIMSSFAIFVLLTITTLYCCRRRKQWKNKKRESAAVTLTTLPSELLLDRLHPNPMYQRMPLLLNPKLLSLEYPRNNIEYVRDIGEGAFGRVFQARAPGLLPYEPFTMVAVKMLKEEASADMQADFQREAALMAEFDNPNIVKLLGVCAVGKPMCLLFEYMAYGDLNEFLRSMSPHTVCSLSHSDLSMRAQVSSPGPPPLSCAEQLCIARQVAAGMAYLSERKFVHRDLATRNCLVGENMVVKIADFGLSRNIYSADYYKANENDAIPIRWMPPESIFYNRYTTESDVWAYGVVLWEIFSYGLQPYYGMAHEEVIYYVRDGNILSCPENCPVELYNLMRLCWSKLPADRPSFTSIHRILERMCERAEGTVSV", "UniProt P41279, sequence (whole entry, looked up)": "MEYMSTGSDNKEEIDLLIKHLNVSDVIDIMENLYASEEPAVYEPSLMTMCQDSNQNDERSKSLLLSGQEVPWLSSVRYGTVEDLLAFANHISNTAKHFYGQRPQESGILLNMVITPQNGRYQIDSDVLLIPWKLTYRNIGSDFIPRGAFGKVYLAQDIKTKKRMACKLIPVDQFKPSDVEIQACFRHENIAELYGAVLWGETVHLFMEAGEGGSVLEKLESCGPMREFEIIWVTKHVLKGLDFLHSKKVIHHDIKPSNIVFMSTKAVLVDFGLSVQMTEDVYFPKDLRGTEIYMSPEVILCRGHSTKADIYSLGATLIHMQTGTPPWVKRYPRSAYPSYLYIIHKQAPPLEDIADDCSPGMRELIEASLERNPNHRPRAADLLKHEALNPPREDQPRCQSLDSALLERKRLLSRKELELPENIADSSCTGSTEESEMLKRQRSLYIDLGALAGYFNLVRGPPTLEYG", "UniProt Q9UBS0, sequence (whole entry, looked up)": "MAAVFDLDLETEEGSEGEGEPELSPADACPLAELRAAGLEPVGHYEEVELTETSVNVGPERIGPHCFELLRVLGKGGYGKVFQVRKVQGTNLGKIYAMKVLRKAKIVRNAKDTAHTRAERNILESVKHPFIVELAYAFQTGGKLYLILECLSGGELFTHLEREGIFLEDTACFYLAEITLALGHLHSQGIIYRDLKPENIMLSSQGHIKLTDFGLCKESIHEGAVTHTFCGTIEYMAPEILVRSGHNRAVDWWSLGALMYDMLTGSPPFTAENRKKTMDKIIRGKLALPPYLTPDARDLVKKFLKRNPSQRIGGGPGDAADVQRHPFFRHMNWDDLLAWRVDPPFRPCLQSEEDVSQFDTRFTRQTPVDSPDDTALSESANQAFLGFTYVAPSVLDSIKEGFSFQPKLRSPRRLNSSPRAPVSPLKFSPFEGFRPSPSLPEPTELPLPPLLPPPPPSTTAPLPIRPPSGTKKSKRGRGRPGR", "UniProt P9WI81, sequence (whole entry, looked up)": "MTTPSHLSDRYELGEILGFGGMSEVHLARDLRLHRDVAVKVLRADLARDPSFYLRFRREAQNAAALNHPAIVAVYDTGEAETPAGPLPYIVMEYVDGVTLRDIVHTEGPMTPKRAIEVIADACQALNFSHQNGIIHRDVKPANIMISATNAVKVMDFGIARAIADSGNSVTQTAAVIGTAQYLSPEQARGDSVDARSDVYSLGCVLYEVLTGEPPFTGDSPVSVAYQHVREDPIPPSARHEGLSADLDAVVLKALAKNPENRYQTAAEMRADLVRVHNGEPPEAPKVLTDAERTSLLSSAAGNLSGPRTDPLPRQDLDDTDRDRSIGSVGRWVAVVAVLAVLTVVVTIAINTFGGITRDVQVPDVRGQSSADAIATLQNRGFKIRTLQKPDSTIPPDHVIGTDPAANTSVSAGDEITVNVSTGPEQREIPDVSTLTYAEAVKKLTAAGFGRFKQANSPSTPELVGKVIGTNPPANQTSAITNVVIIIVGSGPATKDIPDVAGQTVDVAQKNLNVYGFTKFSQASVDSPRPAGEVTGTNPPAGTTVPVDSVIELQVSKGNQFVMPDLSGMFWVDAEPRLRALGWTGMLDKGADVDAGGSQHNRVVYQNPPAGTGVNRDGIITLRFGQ", "UniProt Q96PF2, sequence (whole entry, looked up)": "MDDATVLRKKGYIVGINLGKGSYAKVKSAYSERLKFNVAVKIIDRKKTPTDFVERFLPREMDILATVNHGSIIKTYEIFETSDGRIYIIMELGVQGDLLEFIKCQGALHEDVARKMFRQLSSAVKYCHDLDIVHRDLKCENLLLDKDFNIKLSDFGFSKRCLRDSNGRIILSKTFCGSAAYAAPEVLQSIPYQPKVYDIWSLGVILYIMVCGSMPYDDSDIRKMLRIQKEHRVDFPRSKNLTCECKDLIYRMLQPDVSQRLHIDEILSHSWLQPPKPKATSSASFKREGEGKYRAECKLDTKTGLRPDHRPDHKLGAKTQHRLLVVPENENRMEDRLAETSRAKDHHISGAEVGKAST", "UniProt Q00535, sequence (whole entry, looked up)": "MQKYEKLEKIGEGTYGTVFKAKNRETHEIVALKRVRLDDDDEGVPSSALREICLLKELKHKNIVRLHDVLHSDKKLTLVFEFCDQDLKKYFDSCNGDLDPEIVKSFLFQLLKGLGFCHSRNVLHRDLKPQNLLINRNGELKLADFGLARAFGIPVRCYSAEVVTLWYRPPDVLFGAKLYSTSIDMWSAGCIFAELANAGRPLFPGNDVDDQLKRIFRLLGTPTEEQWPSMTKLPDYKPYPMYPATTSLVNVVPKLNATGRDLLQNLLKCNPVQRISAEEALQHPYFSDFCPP"}
{"data": "Study 1", "host": "human", "sample": "microsomes or S9", "tested at": "2 µM", "time": "0.5 h"}
{"SMILES": "Cc1nc(Cl)c(Cl)n1Cc1ccc(Cl)nc1", "remaining compound": "65.9%"}
{"SMILES": "C/C(NN1CCCCCC1)=C1\\C(=O)N(C2CCCCC2)C(=O)N=C1O", "remaining compound": "5.87%"}
{"SMILES": "Cc1cc(C#N)cc(C(=O)NCc2ccc3c(c2)OCO3)c1NC(=O)c1cc(Br)nn1-c1ncccc1Cl", "remaining compound": "41.8%"}
{"data": "Study 2", "target": "Calcium/calmodulin-dependent protein kinase type II subunit alpha (CAMK2A, Homo sapiens, UniProt Q9UQM7)", "read-out": "enzyme activity", "action": "inhibitor", "tested at": "10 µM", "UniProt Q9UQM7, sequence (whole entry, looked up)": "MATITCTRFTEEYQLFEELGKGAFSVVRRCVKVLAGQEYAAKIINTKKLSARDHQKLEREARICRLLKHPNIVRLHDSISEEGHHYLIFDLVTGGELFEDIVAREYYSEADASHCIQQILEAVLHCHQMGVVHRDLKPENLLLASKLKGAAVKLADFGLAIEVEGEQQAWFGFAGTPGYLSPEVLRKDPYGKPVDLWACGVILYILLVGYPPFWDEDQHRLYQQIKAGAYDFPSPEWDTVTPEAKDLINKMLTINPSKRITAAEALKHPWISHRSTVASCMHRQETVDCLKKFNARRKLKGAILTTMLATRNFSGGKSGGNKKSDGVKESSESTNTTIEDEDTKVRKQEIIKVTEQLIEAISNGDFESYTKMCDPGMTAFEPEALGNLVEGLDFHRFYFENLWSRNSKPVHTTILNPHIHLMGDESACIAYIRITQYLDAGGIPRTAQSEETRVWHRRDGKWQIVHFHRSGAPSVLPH"}
{"Compound": "CCN1C[C@]2(COC)CC[C@H](OC)[C@]34C1[C@H]([C@H](OC)[C@H]23)[C@@]1(OC(C)=O)C[C@H](OC)[C@@]2(O)C[C@@H]4[C@@H]1[C@H]2OC(=O)c1ccc(OC)cc1", "inhibition [%]": -44}
{"Compound": "COc1ccc2c(c1OC)C(=O)O[C@@H]2[C@H]1c2cc3c(cc2CCN1C)OCO3", "inhibition [%]": 40}
{"Compound": "CC(=O)O[C@H]1[C@H]2O[C@]23[C@@H]2CC[C@]4(O)C[C@@H](O)CC[C@]4(C)[C@H]2CC[C@]3(C)[C@H]1c1ccc(=O)oc1", "inhibition [%]": -10}
{"Compound": "C/C=C(\\C)C(=O)O[C@H]1C[C@@H](OC(C)=O)[C@@]2(C(=O)OC)CO[C@H]3[C@@H](O)[C@@](C)([C@]45O[C@@]4(C)[C@H]4C[C@@H]5O[C@@H]5OC=C[C@@]54O)[C@H]4[C@]1(CO[C@]4(O)C(=O)OC)[C@@H]32", "inhibition [%]": -3}
{"Compound": "CN1Cc2c(ccc3c2OCO3)-c2ccc3cc4c(cc3c21)OCO4", "inhibition [%]": -7}
{"data": "Study 3", "SMILES": "O=c1[nH]c2ccccc2n1C1CCN(Cc2ccc(-c3[nH]c4cc5ncnc5cc4nc3-c3ccccc3)cc2)CC1", "read-out": "cell-free assay", "tested at": "0.5 µM"}
{"target": "SRSF protein kinase 2 (SRPK2, Homo sapiens, UniProt P78362)", "remaining signal [%]": 116}
{"target": "Tyrosine-protein kinase Tec (TEC, Homo sapiens, UniProt P42680)", "remaining signal [%]": 162}
{"target": "Calcium/calmodulin-dependent protein kinase type 1G (CAMK1G, Homo sapiens, UniProt Q96NX5)", "remaining signal [%]": 101}
{"target": "Muscle, skeletal receptor tyrosine-protein kinase (MUSK, Homo sapiens, UniProt O15146)", "remaining signal [%]": 96.8}
{"target": "Serine/threonine-protein kinase Sgk2 (SGK2, Homo sapiens, UniProt Q9HBY8)", "remaining signal [%]": 112}
{"target": "Testis-specific serine/threonine-protein kinase 2 (TSSK2, Homo sapiens, UniProt Q96PF2)", "remaining signal [%]": 96.2}
{"target": "Protein kinase C gamma type (PRKCG, Homo sapiens, UniProt P05129)", "remaining signal [%]": 92.2}
{"target": "TGF-beta receptor type-1 (TGFBR1, Homo sapiens, UniProt P36897)", "remaining signal [%]": 102}
{"target": "Ribosomal protein S6 kinase beta-2 (RPS6KB2, Homo sapiens, UniProt Q9UBS0)", "remaining signal [%]": 102}
{"target": "Cyclin-dependent kinase 5, with p25 (CDK5, Homo sapiens, UniProt Q00535)", "remaining signal [%]": 96.9}
{"target": "Serine/threonine-protein kinase pim-3 (PIM3, Homo sapiens, UniProt Q86V86)", "remaining signal [%]": 106}
{"target": "Cyclin-dependent kinase 3, with cyclin E (CDK3, Homo sapiens, UniProt Q00526)", "remaining signal [%]": 97.5}
{"target": "Serine/threonine-protein kinase PAK 3 (PAK3, Homo sapiens, UniProt O75914)", "remaining signal [%]": 104}
{"target": "Tyrosine-protein kinase Fgr (FGR, Homo sapiens, UniProt P09769)", "remaining signal [%]": 95.7}
{"target": "Mitogen-activated protein kinase kinase kinase 8 (MAP3K8, Homo sapiens, UniProt P41279)", "remaining signal [%]": 95.2}
{"target": "Serine/threonine-protein kinase A-Raf (ARAF, Homo sapiens, UniProt P10398)", "remaining signal [%]": 99.2}
{"target": "G protein-coupled receptor kinase 6 (GRK6, Homo sapiens, UniProt P43250)", "remaining signal [%]": 88}
{"target": "Serine/threonine-protein kinase Nek11 (NEK11, Homo sapiens, UniProt Q8NG66)", "remaining signal [%]": 86.4}
{"target": "Dual specificity tyrosine-phosphorylation-regulated kinase 3 (DYRK3, Homo sapiens, UniProt O43781)", "remaining signal [%]": 101}
{"target": "Serine/threonine-protein kinase ULK1 (ULK1, Homo sapiens, UniProt O75385)", "remaining signal [%]": 96.7}
{"target": "Cyclin-dependent kinase 2, with cyclin A (CDK2, Homo sapiens, UniProt P24941)", "remaining signal [%]": 98}
{"target": "Cyclin-dependent kinase 9, with cyclin T1 (CDK9, Homo sapiens, UniProt P50750)", "remaining signal [%]": 93.2}
{"target": "Serine/threonine-protein kinase TAO1 (TAOK1, Homo sapiens, UniProt Q7L7X3)", "remaining signal [%]": 102}
{"target": "G protein-coupled receptor kinase 3 (GRK3, Homo sapiens, UniProt P35626)", "remaining signal [%]": 87.3}
{"target": "Lymphokine-activated killer T-cell-originated protein kinase (PBK, Homo sapiens, UniProt Q96KB5)", "remaining signal [%]": 103}
{"data": "Study 4", "cell line": "mouse MPNST tumor cells", "method": "high-content immunofluorescence imaging", "item": "nuclear SOX9", "tested at": "10 µM", "time": "12 h", "setting": "mean of 2 replicates", "baseline": "DMSO control", "direction": "higher = more nuclear SOX9"}
{"Compound": "CC1=NN=C(c2ccc(N)cc2)c2cc3c(cc2C1)OCO3", "nuclear SOX9 intensity": "100 % of DMSO"}
{"Compound": "CN/C(=N\\S(=O)(=O)c1ccc(Cl)cc1)N1C[C@H](c2ccccc2)C(c2ccc(Cl)cc2)=N1", "nuclear SOX9 intensity": "101 % of DMSO"}
{"Compound": "CC(C)c1c(CN(C)C(C)Cc2ccccc2)n(C)n(-c2ccccc2)c1=O (centres unmarked)", "nuclear SOX9 intensity": "95.2 % of DMSO"}
{"Compound": "C#C[C@]1(O)CC[C@H]2[C@@H]3CCC4=CC(=O)CCC4=C3C=C[C@@]21CC", "nuclear SOX9 intensity": "85.4 % of DMSO"}
{"Compound": "C[C@]12CC[C@H]3[C@@H](CC[C@@]45O[C@@H]4C(O)=C(C#N)C[C@]35C)[C@@H]1CC[C@@H]2O", "nuclear SOX9 intensity": "79.8 % of DMSO"}
{"Compound": "COc1ccc(C(CN(C)C)C2(O)CCCCC2)cc1 (centres unmarked)", "nuclear SOX9 intensity": "113 % of DMSO and 71.5 % of DMSO"}
{"Compound": "NCC1(CC(=O)O)CCCCC1", "nuclear SOX9 intensity": "108 % of DMSO and 94.9 % of DMSO"}
{"data": "Study 5", "organism": "Sarcocystis neurona", "read-out": "parasite growth", "tested at": "concentration not given", "setting": "second screen", "baseline": "untreated"}
{"Compound": "Cl.O.Oc1ccc2c3c1O[C@H]1c4[nH]c5ccccc5c4C[C@@]4(O)[C@@H](C2)N(CC2CC2)CC[C@]314", "log2 fold change": 0.27}
{"Compound": "COc1cc(N)c(Cl)cc1C(=O)NC1CN2CCC1CC2.Cl (centres unmarked)", "log2 fold change": 0.35}
{"Compound": "COC(=O)N1CCN(C(=O)Cc2ccc(Cl)c(Cl)c2)C(CN2CCCC2)C1.O=C(O)/C=C/C(=O)O (centres unmarked)", "log2 fold change": 0.31}
{"Compound": "CC(NC(C)(C)C)C(=O)c1cccc(Cl)c1.Cl (centres unmarked)", "log2 fold change": 0.39}
{"Compound": "COc1ccc2[nH]cc(C3=CCNCC3)c2c1.O=C(O)CCC(=O)O", "log2 fold change": 0.36}
{"Compound": "CN1CC[C@@H](c2ccc(F)cc2)[C@H](COc2ccc3c(c2)OCO3)C1", "log2 fold change": 0.21}
{"data": "Mixed results"}
{"Compound": "O=C(NCc1ncc(C(F)(F)F)cc1Cl)c1ccc2c(c1)C1(CCS(=O)(=O)CC1)[C@H](C1CC1)N2S(=O)(=O)c1ccc(F)cc1", "target": "Calcium-dependent protein kinase 1 (CDPK1, Plasmodium falciparum, UniProt P62344)", "read-out": "cell-free assay", "method": "competition with immobilised ligand", "tested at": "1 µM", "quantity": "remaining binding", "value": "85%"}
{"Compound": "Cc1c(N2CCNCC2)nc2ccc(Br)cc2c1C(=O)NC[C@H](CCC(=O)O)c1ccccc1Cl", "target": "D(4) dopamine receptor (DRD4, Homo sapiens, UniProt P21917)", "read-out": "ligand displacement", "tested at": "10 µM", "quantity": "inhibition", "value": "5.89%"}
{"Compound": "N#Cc1ccc(Nc2ccc3[nH]c(=O)[nH]c3c2)c(Cl)c1", "target": "Serine/threonine-protein kinase PknB (pknB, Mycobacterium tuberculosis, UniProt P9WI81)", "read-out": "cell-free assay", "method": "competition with immobilised ligand", "tested at": "1 µM", "quantity": "remaining binding", "value": "100%"}
{"Compound": "O=C(Nc1ccc(Oc2ccc(F)cc2)cc1)N1CCc2ncccc2[C@H]1c1ccc(F)cc1", "target": "Cyclin-dependent kinase 2 homolog (CRK2, Plasmodium falciparum, UniProt P61075)", "read-out": "cell-free assay", "method": "competition with immobilised ligand", "tested at": "1 µM", "quantity": "remaining binding", "value": "87%"}
{"note": "Excerpt of the above (study 3):"}
{"target": "Serine/threonine-protein kinase Sgk2 (SGK2, Homo sapiens, UniProt Q9HBY8)", "remaining signal [%]": 112}
{"target": "Testis-specific serine/threonine-protein kinase 2 (TSSK2, Homo sapiens, UniProt Q96PF2)", "remaining signal [%]": 96.2}
{"target": "Protein kinase C gamma type (PRKCG, Homo sapiens, UniProt P05129)", "remaining signal [%]": 92.2}
{"target": "TGF-beta receptor type-1 (TGFBR1, Homo sapiens, UniProt P36897)", "remaining signal [%]": 102}
{"target": "Ribosomal protein S6 kinase beta-2 (RPS6KB2, Homo sapiens, UniProt Q9UBS0)", "remaining signal [%]": 102}
{"target": "Cyclin-dependent kinase 5, with p25 (CDK5, Homo sapiens, UniProt Q00535)", "remaining signal [%]": 96.9}
